# Measured values of several laboratories.
# Compare with care: the assays were run in different laboratories. “And” joins repeats or separate records; there may be more than shown. Numbers after ± are the reported error.
# MT-CYB/UQCRFS1: MT-CYB/UQCRFS1 (Homo sapiens, UniProt P00156+P47985)
# Chain of UniProt P00156 (whole entry, looked up): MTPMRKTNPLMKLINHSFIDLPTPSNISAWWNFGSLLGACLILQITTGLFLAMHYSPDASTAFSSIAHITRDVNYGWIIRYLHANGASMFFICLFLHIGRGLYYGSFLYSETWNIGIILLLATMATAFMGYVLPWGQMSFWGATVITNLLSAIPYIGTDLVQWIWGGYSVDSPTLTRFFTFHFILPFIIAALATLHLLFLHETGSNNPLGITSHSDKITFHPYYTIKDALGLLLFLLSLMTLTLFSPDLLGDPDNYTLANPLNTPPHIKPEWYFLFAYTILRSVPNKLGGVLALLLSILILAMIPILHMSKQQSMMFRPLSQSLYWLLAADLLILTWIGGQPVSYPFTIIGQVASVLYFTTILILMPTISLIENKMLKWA
# Chain of UniProt P47985 (whole entry, looked up): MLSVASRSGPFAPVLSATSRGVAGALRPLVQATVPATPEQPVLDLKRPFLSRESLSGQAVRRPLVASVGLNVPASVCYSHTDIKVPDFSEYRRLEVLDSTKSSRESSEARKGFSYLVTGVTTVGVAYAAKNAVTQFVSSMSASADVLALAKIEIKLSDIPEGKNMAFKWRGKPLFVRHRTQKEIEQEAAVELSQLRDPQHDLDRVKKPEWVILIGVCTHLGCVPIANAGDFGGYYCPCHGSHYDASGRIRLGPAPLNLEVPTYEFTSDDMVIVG
# KEAP1 Kelch domain: Kelch-like ECH-associated protein 1, Kelch domain (KEAP1, Homo sapiens, UniProt Q14145)
# Chain of UniProt Q14145 (whole entry, looked up): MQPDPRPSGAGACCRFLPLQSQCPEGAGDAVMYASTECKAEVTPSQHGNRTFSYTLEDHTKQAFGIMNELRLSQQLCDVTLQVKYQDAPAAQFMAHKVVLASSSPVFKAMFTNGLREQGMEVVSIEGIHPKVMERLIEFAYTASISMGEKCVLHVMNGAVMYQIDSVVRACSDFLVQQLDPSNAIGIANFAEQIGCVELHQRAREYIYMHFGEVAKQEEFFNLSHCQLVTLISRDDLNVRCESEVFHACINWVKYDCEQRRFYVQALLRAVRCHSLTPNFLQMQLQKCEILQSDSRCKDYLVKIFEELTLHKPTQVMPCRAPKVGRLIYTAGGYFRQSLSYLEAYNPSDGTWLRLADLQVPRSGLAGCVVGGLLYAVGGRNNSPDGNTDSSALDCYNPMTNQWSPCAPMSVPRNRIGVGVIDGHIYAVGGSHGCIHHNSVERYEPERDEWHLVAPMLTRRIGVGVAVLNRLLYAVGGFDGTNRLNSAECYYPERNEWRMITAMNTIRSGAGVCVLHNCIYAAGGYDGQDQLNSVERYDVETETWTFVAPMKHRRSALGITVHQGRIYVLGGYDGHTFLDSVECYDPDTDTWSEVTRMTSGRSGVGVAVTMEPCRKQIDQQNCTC
# ZAP70: Tyrosine-protein kinase ZAP-70 (ZAP70, Homo sapiens, UniProt P43403)
# Chain of UniProt Q64663 (whole entry, unmodified, looked up): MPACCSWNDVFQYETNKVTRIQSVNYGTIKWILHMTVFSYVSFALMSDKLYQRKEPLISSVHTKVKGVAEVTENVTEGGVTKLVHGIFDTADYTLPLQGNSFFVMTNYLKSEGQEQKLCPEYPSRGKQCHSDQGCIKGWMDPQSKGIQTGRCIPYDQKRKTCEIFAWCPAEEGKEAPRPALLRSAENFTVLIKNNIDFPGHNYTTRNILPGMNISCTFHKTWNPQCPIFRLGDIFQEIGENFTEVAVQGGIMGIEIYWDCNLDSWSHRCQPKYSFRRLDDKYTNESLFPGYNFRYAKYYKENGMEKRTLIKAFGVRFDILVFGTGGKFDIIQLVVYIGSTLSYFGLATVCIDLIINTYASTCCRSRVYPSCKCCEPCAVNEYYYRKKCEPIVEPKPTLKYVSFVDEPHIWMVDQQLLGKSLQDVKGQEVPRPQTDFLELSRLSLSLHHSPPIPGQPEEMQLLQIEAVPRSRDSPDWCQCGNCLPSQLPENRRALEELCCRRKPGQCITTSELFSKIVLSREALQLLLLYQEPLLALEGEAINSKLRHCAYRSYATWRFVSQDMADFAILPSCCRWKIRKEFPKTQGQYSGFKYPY
# Chain of UniProt Q04917 (whole entry, looked up): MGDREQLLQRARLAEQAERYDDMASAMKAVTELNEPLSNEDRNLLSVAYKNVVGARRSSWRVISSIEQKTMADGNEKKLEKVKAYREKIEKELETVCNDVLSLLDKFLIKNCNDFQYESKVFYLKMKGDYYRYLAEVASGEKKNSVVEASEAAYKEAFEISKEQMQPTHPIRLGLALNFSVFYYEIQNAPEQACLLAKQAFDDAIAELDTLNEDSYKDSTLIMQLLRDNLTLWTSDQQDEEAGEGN
# Chain of UniProt P51575 (whole entry, unmodified, looked up): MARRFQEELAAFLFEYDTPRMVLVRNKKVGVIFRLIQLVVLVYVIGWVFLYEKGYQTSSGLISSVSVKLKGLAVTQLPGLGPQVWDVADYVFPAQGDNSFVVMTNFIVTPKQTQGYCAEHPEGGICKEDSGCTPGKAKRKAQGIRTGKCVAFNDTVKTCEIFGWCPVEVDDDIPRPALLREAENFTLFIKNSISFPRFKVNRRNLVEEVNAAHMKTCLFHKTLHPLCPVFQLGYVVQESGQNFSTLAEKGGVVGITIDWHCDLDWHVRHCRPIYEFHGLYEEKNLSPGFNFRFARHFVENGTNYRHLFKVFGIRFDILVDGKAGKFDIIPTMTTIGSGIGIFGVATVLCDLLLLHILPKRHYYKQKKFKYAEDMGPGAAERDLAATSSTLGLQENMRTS
# Chain of UniProt P43403 (whole entry, looked up): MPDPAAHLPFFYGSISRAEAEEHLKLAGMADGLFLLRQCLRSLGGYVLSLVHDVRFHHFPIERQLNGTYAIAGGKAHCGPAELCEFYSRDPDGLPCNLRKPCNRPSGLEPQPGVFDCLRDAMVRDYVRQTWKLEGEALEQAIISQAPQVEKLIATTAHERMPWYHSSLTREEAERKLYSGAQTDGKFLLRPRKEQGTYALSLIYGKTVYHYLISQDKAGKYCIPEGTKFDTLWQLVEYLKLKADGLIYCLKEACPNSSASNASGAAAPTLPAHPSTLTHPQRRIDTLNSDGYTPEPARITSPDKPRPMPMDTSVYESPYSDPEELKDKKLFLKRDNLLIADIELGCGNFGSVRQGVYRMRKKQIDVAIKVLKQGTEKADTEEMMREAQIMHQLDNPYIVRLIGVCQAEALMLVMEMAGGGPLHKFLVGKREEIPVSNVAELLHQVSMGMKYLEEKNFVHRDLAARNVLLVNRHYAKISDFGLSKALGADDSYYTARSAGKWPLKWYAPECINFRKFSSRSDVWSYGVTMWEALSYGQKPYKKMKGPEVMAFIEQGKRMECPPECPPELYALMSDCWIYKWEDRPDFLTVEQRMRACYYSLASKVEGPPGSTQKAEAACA
# Chain of UniProt O00222 (whole entry, looked up): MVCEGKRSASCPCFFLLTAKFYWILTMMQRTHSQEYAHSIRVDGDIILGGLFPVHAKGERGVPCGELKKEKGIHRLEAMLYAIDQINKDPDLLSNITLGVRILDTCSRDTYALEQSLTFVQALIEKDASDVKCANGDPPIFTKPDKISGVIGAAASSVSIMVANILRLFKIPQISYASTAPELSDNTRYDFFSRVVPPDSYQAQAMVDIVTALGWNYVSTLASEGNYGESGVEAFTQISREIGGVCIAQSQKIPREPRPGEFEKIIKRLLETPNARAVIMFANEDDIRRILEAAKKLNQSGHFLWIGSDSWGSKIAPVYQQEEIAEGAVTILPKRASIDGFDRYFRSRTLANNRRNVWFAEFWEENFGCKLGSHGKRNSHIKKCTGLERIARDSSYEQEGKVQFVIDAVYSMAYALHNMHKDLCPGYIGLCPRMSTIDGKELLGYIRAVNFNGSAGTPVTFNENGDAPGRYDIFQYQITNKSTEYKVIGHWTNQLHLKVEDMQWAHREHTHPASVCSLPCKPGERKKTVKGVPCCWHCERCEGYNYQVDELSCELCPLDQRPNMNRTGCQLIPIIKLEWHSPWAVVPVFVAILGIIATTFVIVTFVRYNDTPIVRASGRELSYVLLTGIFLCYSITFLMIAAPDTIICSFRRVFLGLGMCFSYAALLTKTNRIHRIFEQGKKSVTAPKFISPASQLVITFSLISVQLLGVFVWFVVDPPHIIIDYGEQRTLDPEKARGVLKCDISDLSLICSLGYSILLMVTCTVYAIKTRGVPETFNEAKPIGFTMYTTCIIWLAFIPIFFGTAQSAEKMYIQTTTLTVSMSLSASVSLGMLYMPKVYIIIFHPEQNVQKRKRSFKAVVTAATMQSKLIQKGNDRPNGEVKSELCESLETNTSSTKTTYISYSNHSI
# Chain of UniProt P36897 (whole entry, looked up): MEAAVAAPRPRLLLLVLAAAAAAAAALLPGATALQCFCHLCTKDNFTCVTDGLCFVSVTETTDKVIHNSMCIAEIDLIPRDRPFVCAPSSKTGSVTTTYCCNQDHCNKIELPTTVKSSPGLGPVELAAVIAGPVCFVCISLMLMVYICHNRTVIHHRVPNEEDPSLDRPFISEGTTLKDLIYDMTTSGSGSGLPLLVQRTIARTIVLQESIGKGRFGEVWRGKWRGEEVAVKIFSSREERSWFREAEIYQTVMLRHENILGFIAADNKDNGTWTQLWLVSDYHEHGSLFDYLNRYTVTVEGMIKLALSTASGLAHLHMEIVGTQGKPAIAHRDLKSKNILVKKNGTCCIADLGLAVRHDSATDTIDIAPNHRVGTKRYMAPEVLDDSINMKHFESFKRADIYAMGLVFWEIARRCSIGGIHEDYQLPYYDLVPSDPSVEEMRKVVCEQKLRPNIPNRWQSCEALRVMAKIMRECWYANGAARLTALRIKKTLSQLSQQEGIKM
# Chain of UniProt Q96D96 (whole entry, looked up): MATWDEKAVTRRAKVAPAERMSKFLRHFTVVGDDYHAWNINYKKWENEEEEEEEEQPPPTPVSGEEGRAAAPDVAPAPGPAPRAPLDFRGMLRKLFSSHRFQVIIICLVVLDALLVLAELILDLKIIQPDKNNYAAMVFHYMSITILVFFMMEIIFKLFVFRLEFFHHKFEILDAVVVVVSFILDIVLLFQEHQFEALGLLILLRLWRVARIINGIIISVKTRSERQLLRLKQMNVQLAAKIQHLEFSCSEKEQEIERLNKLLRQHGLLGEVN
# Chain of UniProt O43169 (whole entry, looked up): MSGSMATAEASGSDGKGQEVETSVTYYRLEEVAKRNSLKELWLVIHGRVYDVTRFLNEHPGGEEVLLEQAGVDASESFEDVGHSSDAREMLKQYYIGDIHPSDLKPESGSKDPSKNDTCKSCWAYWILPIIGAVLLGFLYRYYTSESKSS
SMILES,tested on,test,test system,setting,how to read,endpoint,value
N#Cc1ccc2[nH]cc(CCCCN3CCN(c4ccc5oc(C(N)=O)cc5c4)CC3)c2c1,"SLC6A4 (Homo sapiens, UniProt P31645, F341V)","[3H]5-HT uptake, inhibitor",COS-7,,,Hill coefficient,1.65 ± 0.23
COc1cc(-c2cncc3c2CN(C)Cc2cc(N4CCNCC4)ccc2-3)cc(OC)c1OC,"Cyclin-dependent kinase 17, with cyclin Y (CDK17, Homo sapiens, UniProt Q00537)",kinase activity,,"1 µM, human enzyme, with: ATP 10 µM",reference: DMSO control,remaining activity,108%
CN1CCN(c2cc(-c3ccncc3)c(-c3ccc4ccccc4c3)nn2)CC1,"C3AR1 (Homo sapiens, UniProt Q16581)","agonist, FLIPR",,12.5 µM,,activation,2.6%
CN(C)C(=O)C(CCN1CCC(O)(c2ccc(Cl)cc2)CC1)(c1ccccc1)c1ccccc1,"Calcium-activated potassium channel subunit alpha-1, with LRRC26 γ1 subunit (KCNMA1, Homo sapiens, UniProt Q12791)","BK current, inhibitor, inside-out patch clamp",excised membrane patch,"10 µM, γ1 coexpressed, individual fits, with: nominally 0 Ca2+ cytosolic",reference: without loperamide,normalized Gmax,0.24 ± 0.04
NC(=O)NOCCCCCCCCCCCCCCCC[P+](c1ccccc1)(c1ccccc1)c1ccccc1.O=C([O-])C(F)(F)F,MT-CYB/UQCRFS1,"complex III-dependent respiration, Seahorse XF96",HCT-116,"3 µM, 24 h",reference: control,oxygen consumption rate,63.1%
NCCCS(=O)(=O)O,"SLC6A6 (Homo sapiens, UniProt P31641, G62A)","binding, microscale thermophoresis",,"15.6 µM, room temperature, with: 50 nM labelled protein",higher = more binding,normalised MST signal,-0.0333
CCN1CCC[C@H]1CNC(=O)c1c(O)c(Cl)cc(Cl)c1OC,"GPR101 (Homo sapiens, UniProt Q96P66)","β-arrestin recruitment, TANGO luminescence",,concentration not given,reference: basal luminescence,log2 fold change,0.022
CC(=O)N[C@@H](CO)C(=O)N[C@@H](CC(C)C)C(=O)N[C@@H](CCC(=O)O)C(=O)N[C@@H](CCC(=O)O)C(=O)N1CCC[C@H]1C(=O)N[C@@H](Cc1c[nH]cn1)C(=O)N[C@@H](CO)C(=O)N1CCC[C@H]1C(=O)N[C@@H](CCC(=O)O)C(=O)N[C@H](C(=O)NCC(=O)N[C@@H](CCC(=O)O)C(=O)N[C@@H](CCCCN)C(=O)N[C@H](C(=O)N[C@H](C(=O)N[C@@H](C)C(=O)NCC(=O)N[C@@H](CCC(=O)O)C(=O)N[C@H](C(=O)N[C@@H](CC(N)=O)C(N)=O)C(C)C)C(C)C)C(C)C)[C@@H](C)O,KEAP1 Kelch domain,"binding, ITC",,"pH 7, 298.15 K",,ΔG,-8.97 ± 0.05 kcal/mol
COc1cc(NC(=O)c2cscn2)ccc1/N=N/c1ccccc1Cl,"GRM8 (Homo sapiens, UniProt O00222)","positive allosteric modulator, IP accumulation",HEK293,"30 µM, in the dark, with: low-dose orthosteric agonist",,activation,37.5%
N=C(N)Nc1nc2ccccc2[nH]1,"HVCN1 (Homo sapiens, UniProt Q96D96)","proton current, inhibitor, inside-out patch clamp",Xenopus oocytes,dimeric channel,,Hill coefficient,0.93 ± 0.04
COc1c(O[C@@H]2O[C@H](CO)[C@@H](O)[C@H](O)[C@H]2O)c(C)cc2c1C(=O)c1c(O)cccc1C2=O,HK-2 co-cultured with HepaRG,MTT,,"66.67 µM, 48 h",reference: untreated control,cell viability,92.8 ± 1.62%
c1coc(-c2n[nH]cc2-c2ccnc3ccccc23)c1,"TGFBR1 (Homo sapiens, UniProt P36897)",,,,reference: IC50 on target over Yck2,selectivity ratio,1
O=C1Nc2ccccc2C1O (stereo not drawn),"Dehaloperoxidase B, ferric (Amphitrite ornata, UniProt Q9NAV7)","product, HPLC",,"5 min, pH 7, 25 °C, enzyme 10 µM, with: indole and H2O2 500 µM each",,product formed,4.83 M
CSCC[C@H](NC(=O)[C@H](CCC(N)=O)NC(=O)[C@H](CC(C)C)NC(=O)[C@H](CO)NC(=O)[C@H](CCC(N)=O)NC(=O)[C@H](CC(C)C)NC(=O)[C@H](CCC(=O)O)NC(=O)CNC(=O)[C@@H](NC(=O)[C@H](CO)NC(=O)[C@@H]1CCCN1C(=O)[C@H](CC(=O)O)NC(=O)[C@@H](NC(=O)[C@H](CCC(=O)O)NC(=O)[C@H](CCCCN)NC(=O)[C@H](CO)NC(=O)[C@H](CO)NC(=O)[C@H](CC(C)C)NC(C)=O)C(C)C)[C@@H](C)O)C(=O)N1CCC[C@H]1C(=O)N[C@@H](CCC(=O)O)C(N)=O,KEAP1 Kelch domain,"binding, ITC",,"pH 7, 298.15 K",,ΔG,-7.9 ± 0.04 kcal/mol
NC(=O)NO,MT-CYB/UQCRFS1,"complex III-dependent respiration, Seahorse XF96",HCT-116,"30 µM, 24 h",reference: control,oxygen consumption rate,81.2 ± 3.91%
Nc1ncnc2c1ncn2[C@@H]1O[C@H](C[C@@H](N)CC[C@H](N)C(=O)O)[C@@H](O)[C@H]1O,"O-methyltransferase (Sorghum bicolor, UniProt A0A1B6PFV1)",ITC,,"concentration not given, with: PTR+",,binding stoichiometry,0.98 ± 0.012
CC[C@H](C)[C@H](NC(=O)[C@@H]1CCCN1C(=O)[C@H](CC(C)C)NC(=O)[C@H](Cc1ccccc1)NC(=O)[C@H](CCC(=O)O)NC(=O)CNC(=O)[C@@H](NC(=O)[C@H](CCC(=O)O)NC(=O)[C@@H]1CCCN1C(=O)[C@H](CC(=O)O)NC(=O)[C@H](CC(C)C)NC(=O)[C@H](CCC(N)=O)NC(=O)[C@H](CC(C)C)NC(=O)[C@H](CCC(N)=O)NC(=O)[C@H](C)NC(=O)[C@H](Cc1ccccc1)NC(C)=O)[C@@H](C)O)C(=O)N[C@@H](CCC(N)=O)C(=O)N1CCC[C@H]1C(=O)N[C@@H](C)C(=O)N[C@@H](CCC(N)=O)C(N)=O,KEAP1 Kelch domain,"binding, ITC",,"pH 7, 298.15 K",,ΔH,-16.65 ± 0.064 kcal/mol
COc1cc(F)ccc1-c1ncnc(Nc2cccc(C[S@](C)(=N)=O)c2)n1,"LIM domain kinase 1 (LIMK1, Homo sapiens, UniProt P53667)",kinase activity,,"10 µM, with: 10 µM ATP",,remaining activity,64%
Nc1ncnc2c1ncn2[C@@H]1O[C@H](CO[P@](=O)(O)O[P@](=O)(O)O[P@@](=O)(O)S)[C@@H](O)[C@H]1O,"GUK1 (Homo sapiens, UniProt Q16774)","binding, isothermal titration calorimetry",,"molar ratio 0.4975, fitted curve",,ΔH,-1.54 kcal/mol
O=C(COP(=O)(O)O)[C@@H](O)[C@H](O)[C@H](O)COP(=O)(O)O,"14-3-3 protein eta (Homo sapiens, UniProt Q04917)","thermal proteome profiling, item: YWHAH",HepG2 cell lysate,"concentration not given, 57 over 37 °C",reference: compound over control,thermal stability ratio,0.349 and 0.625 and 0.727
O=c1nc(SCc2cc(F)cc(C(F)(F)F)c2)nc(SCc2csc3ccc(Cl)cc23)[nH]1,"TOP2B (Homo sapiens, UniProt Q02880)",decatenation,,"125 µM, replicate 2",,decatenated DNA,0%
C=CC(=O)NCc1ccccc1CN(C(=O)Nc1cccc(C(F)(F)F)c1)C1CCN(C(C)CCC)CC1 (stereo not drawn),"DCN1-like protein 1 (Homo sapiens, UniProt Q96GG9)","covalent binder, LC-TOF mass spectrometry",,"60 µM, overnight, 4 °C, with: DCN1-like protein 1 30 µM",,covalent adduct formation,10%
NC(=O)NOCCCCCCCCCCCCCCCCCCCC[P+](c1ccccc1)(c1ccccc1)c1ccccc1.O=C([O-])C(F)(F)F,MT-CYB/UQCRFS1,"complex III-dependent respiration, Seahorse XF96",HCT-116,"10 µM, 24 h",reference: control,oxygen consumption rate,26.6%
Cc1ccc(S(=O)(=O)Nc2ccc(F)cc2NS(=O)(=O)c2ccc(C)cc2)cc1,"Protein lin-28 homolog A (Mus musculus, UniProt Q8K3Y3)",,,,,Hill slope,-1.1
NC(=O)NOCCCCCCCCCC[P+](c1ccccc1)(c1ccccc1)c1ccccc1.O=C([O-])C(F)(F)F,MT-CYB/UQCRFS1,"complex III-dependent respiration, Seahorse XF96",HCT-116,"40 µM, 24 h",reference: control,oxygen consumption rate,35 ± 9.26%
O=C(NO)c1ccc(CN2CCCCc3ccccc32)c(F)c1,"HTR1E (Homo sapiens, UniProt P28566)",radioligand binding,,10 µM,,inhibition of radioligand binding,9.45%
Nc1ncnc2c1ncn2[C@@H]1O[C@H](COP(=O)(O)OP(=O)(O)OP(=O)(O)O)[C@@H](O)[C@H]1O,"P2X purinoceptor 7 (P2rx7, Rattus norvegicus, UniProt Q64663, R125A)","ion current, agonist, two-electrode voltage clamp",Xenopus laevis oocytes,18.52 µM,reference: highest concentration response,normalized current,0.223 and 0.323 and 0.208
Nc1ncnc2c1ncn2[C@@H]1O[C@H](COP(=O)(O)CP(=O)(O)OP(=O)(O)O)[C@@H](O)[C@H]1O,"P2X purinoceptor 1 (P2RX1, Homo sapiens, UniProt P51575, K140A)",calcium influx,,1 µM,reference: ionomycin response,calcium influx,75.6% and 70.6% and 91.8% and 94%
COc1cc(Nc2ncc3c(n2)-c2ccc(Cl)cc2C(c2c(F)cccc2OC)=NC3)ccc1C(=O)O,BRAF V599E,kinase activity,,1 µM,,remaining activity,92%
C=CC(=O)N1CCC(COCC(=O)N2CCN(c3nc(-c4cnc(N)nc4C(F)F)nc(N4CCOC[C@@H]4C)n3)CC2)CC1,ZAP70,KINOMEscan,,1 µM,,remaining binding,98%
CC(=C/C(=O)O)/C=C/C=C(\C)C1C=C2C(C)(C)CCCC2(C)O1 (stereo not drawn),"Rhodopsin (RHO, Homo sapiens, UniProt P08100, E181K)","immunostaining, item: opsin",COS-7 transfected,"1.00 µM, unit not given",reference: surface over total stained cells,plasma membrane localization,0.66
C=CC(=O)N1CCC[C@@H](n2nc(-c3ccc(Oc4ccccc4)cc3)c3c(N)ncnc32)C1,ZAP70,,,10 µM,,remaining activity,210%
CCO[C@H](COc1ccc(C(F)(F)F)cc1)CSc1ccc(OCC(=O)O)c(C)c1,"Peroxisome proliferator-activated receptor alpha (Rattus norvegicus, UniProt P37230)","receptor activation, agonist",,species rat,reference: internal control agonist,Emax,20%
OC[C@H]1OC(O)[C@H](O)[C@@H](O)[C@@H]1O (stereo partly drawn),"Hexokinase-3 (HK3, Homo sapiens, UniProt P52790, N221A)","enzyme activity, coupled G6PDH",,,,maximal inhibition,~50%
COc1c(O)c(C)cc2c1C(=O)c1c(ccc(O)c1O)C2=O,HK-2 co-cultured with HepaRG,MTT,,"66.67 µM, 48 h",reference: untreated control,viability,81.5 ± 5.05%
C#Cc1cccc(Oc2ccc(-c3nn([C@@H]4CCCN(C(=O)C=C)C4)c4ncnc(N)c34)cc2)c1,"Cytochrome b5 type B (CYB5B, Homo sapiens, UniProt O43169)",ABPP-SILAC,,"1 µM, 1 h",reference: DMSO,SILAC ratio,7

# A few entries again:
SMILES,tested on,test,test system,setting,how to read,endpoint,value
CCN1CCC[C@H]1CNC(=O)c1c(O)c(Cl)cc(Cl)c1OC,"GPR101 (Homo sapiens, UniProt Q96P66)","β-arrestin recruitment, TANGO luminescence",,concentration not given,reference: basal luminescence,log2 fold change,0.022
CC(=O)N[C@@H](CO)C(=O)N[C@@H](CC(C)C)C(=O)N[C@@H](CCC(=O)O)C(=O)N[C@@H](CCC(=O)O)C(=O)N1CCC[C@H]1C(=O)N[C@@H](Cc1c[nH]cn1)C(=O)N[C@@H](CO)C(=O)N1CCC[C@H]1C(=O)N[C@@H](CCC(=O)O)C(=O)N[C@H](C(=O)NCC(=O)N[C@@H](CCC(=O)O)C(=O)N[C@@H](CCCCN)C(=O)N[C@H](C(=O)N[C@H](C(=O)N[C@@H](C)C(=O)NCC(=O)N[C@@H](CCC(=O)O)C(=O)N[C@H](C(=O)N[C@@H](CC(N)=O)C(N)=O)C(C)C)C(C)C)C(C)C)[C@@H](C)O,KEAP1 Kelch domain,"binding, ITC",,"pH 7, 298.15 K",,ΔG,-8.97 ± 0.05 kcal/mol
COc1cc(NC(=O)c2cscn2)ccc1/N=N/c1ccccc1Cl,"GRM8 (Homo sapiens, UniProt O00222)","positive allosteric modulator, IP accumulation",HEK293,"30 µM, in the dark, with: low-dose orthosteric agonist",,activation,37.5%
N=C(N)Nc1nc2ccccc2[nH]1,"HVCN1 (Homo sapiens, UniProt Q96D96)","proton current, inhibitor, inside-out patch clamp",Xenopus oocytes,dimeric channel,,Hill coefficient,0.93 ± 0.04
COc1c(O[C@@H]2O[C@H](CO)[C@@H](O)[C@H](O)[C@H]2O)c(C)cc2c1C(=O)c1c(O)cccc1C2=O,HK-2 co-cultured with HepaRG,MTT,,"66.67 µM, 48 h",reference: untreated control,cell viability,92.8 ± 1.62%
